# Measured values of several laboratories.
# Every numbered part comes from another study and shows a few of its results, in no order. Changes are numbered by the printed parent chain.

# Block 1
# Target: ABI1, truncated, D143A, DHFR fusion (Arabidopsis thaliana)
# Technique: DHFR PCA, deep sequencing
# Medium: yeast
# Notes: methotrexate growth selection, single substitutions
# Added: (+)-ABA 4.8 µM
# Reference: wild-type fitted maximum
# Reading: higher = stronger binding
# Parent: PYL1, truncated, DHFR fusion (Arabidopsis thaliana); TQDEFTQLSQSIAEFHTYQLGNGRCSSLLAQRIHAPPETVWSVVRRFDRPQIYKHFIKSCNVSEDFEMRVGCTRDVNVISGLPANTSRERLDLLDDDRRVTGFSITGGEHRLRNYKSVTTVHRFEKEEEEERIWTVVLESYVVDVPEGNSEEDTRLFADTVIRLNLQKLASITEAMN; partner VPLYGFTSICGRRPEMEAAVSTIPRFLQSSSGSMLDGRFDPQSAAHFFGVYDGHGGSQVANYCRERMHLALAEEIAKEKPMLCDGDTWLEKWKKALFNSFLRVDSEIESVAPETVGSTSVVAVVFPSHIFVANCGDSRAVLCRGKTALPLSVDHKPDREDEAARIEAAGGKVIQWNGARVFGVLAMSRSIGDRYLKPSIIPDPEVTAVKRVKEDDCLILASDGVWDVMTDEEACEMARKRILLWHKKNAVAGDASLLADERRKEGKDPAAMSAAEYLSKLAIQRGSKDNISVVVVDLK
Substitution,relative binding score
V137H,2.61%
I79D,-2.99%
E151Q,59.5%
M176G,67.8%
L138G,2.68%
L82D,-7.4%
V62S,9.39%
Q51K,-10.8%
L169S,-1.78%

# Block 2
# Target: CCNB2, cyclin fold, Cln2 fusion (human)
# Technique: yeast growth competition, sequencing
# Medium: yeast
# Notes: strong parent motif
# Reference: not given
# Reading: higher = stronger binding
# Parent: E2F1 docking peptide (human); PPVKRRLDFETDH
Substitution,normalised enrichment score
PPVKRRSDFETDH [L7S],0.104
PPVKRRLDFHTDH [E10H],2.65
PPVKRRLDFEPDH [T11P],3.48
PPVKRRLDFEWDH [T11W],4.12
PPVKRRLTFETDH [D8T],3.07
PPVKRRLDFEEDH [T11E],4.36
PGVKRRLDFETDH [P2G],3.59
PPVKRRLCFETDH [D8C],3.42
PPTKRRLDFETDH [V3T],1.91
PPEKRRLDFETDH [V3E],1.52
PPVKCRLDFETDH [R5C],2.19
PPGKRRLDFETDH [V3G],-0.132
PPVKRRLDFEADH [T11A],3.4
PPVKRRLDFETYH [D12Y],3.58
PPVKRRLDFMTDH [E10M],2.72

# Block 3
# Target: Histone acetyltransferase KAT6A, winged helix 1, GST fusion (KAT6A, Homo sapiens, UniProt Q92794, residues 1-85)
# Technique: protein binding microarray
# Molecule type: double-stranded DNA, one strand shown
# Medium: in vitro
# Concentration: not given
# Notes: 8-mer, flanks averaged, mean of 2 arrays, mostly near background
# Reference: not given
# Reading: higher = stronger binding
# Construct (chain): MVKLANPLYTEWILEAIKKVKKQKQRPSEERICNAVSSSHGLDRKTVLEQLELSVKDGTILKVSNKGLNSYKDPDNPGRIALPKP
Oligonucleotide,E-score
CAGTGCCA,-0.246
TCAGACAA,-0.152
GATCTTGC,0.00731
GGGCTTTA,0.034
CCTTTACC,0.0938
GACAGGAA,-0.146
CTAGGGAG,-0.158
CGGACGTC,0.21
ATGAACCA,-0.237
CGAAAGCA,-0.139
GATATCCA,-0.242

# Other studies, line by line
Molecule,target,test,system,setting,scale,measurement,value
"PhoQ, residues 284 288 289 292 302 303 TTCLQL","PhoP, residues 12 14 15 18 19 SFCSL (Escherichia coli, UniProt P23836)","Sort-seq, measured: YFP reporter",E. coli,"PhoQ-PhoP variant library, added: 10 µM Mg2+","reference: high Mg2+ state, higher = stronger signaling",fold induction,2.16
